Assay results pooled from the literature.
Protocols differ between the studies behind these lines. ± gives the spread as reported.
STAT3: Signal transducer and activator of transcription 3 (STAT3, Homo sapiens, UniProt P40763)
UniProt P40763, sequence (whole entry, looked up): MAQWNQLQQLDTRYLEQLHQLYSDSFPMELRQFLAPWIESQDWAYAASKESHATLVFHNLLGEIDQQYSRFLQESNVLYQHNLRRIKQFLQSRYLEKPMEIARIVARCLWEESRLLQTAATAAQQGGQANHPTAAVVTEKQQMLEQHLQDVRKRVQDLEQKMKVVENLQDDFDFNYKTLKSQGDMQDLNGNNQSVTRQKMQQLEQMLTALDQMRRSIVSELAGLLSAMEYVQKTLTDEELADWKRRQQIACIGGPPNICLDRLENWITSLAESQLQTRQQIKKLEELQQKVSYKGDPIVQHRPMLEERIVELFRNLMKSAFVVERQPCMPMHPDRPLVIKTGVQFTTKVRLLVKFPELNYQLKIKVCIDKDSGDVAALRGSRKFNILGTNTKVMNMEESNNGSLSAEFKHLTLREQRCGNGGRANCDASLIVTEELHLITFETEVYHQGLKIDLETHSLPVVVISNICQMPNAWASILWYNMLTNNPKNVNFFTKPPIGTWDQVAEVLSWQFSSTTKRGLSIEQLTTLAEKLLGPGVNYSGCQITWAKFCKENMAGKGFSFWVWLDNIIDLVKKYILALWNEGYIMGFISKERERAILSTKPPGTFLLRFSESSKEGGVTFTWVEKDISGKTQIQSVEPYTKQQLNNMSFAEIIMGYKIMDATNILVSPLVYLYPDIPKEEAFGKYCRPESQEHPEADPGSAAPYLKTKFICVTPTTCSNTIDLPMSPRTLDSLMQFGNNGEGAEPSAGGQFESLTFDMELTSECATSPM
STAT3 SH2 domain: Signal transducer and activator of transcription 3, SH2 domain (STAT3, Homo sapiens, UniProt P40763)

Compound | target | test | measurement | value
CC(C)C[C@H](NC(=O)Cc1c[nH]c2cc(OP(=O)(O)O)ccc12)C(=O)N1CCC[C@H]1C(=O)N[C@@H](CCC(N)=O)C(=O)N[C@H](C(N)=O)[C@@H](C)O | STAT3 | SH2 domain binding, fluorescence polarization | IC50 | > 100 µM
O=C(Nc1ccc(-c2cnc3cc(C4=CCNCC4)ccn23)cc1)c1ccc([N+](=O)[O-])o1 | STAT3 | binding, SPR | Kd | 7.55 µM
CC(C)C[C@H](NC(=O)c1ccc2ccc(OP(=O)(O)O)cc2c1)C(=O)N1CCC[C@H]1C(=O)N[C@@H](CCC(N)=O)C(=O)N[C@H](C(N)=O)[C@@H](C)O | STAT3 | SH2 domain binding, fluorescence polarization | IC50 | > 100 µM
CC[C@H](C)[C@H](NC(=O)[C@H](Cc1ccc(O)cc1)NC(=O)[C@@H]1CCCN1C(=O)[C@H](C)NC(=O)[C@H](CC(C)C)NC(=O)[C@H](C)NC(=O)CCCCCNC(=O)[C@H](Cc1ccc(O)cc1)NC(=O)[C@H](Cc1c[nH]cn1)NC(=O)[C@H](CCSC)NC(=O)[C@H](CCSC)NC(=O)[C@H](CC(=O)O)NC(=O)[C@@H]1CCCN1C(=O)[C@@H]1CCCN1C(=O)[C@H](Cc1c[nH]c2ccccc12)NC(=O)[C@H](CO)NC(=O)[C@@H](NC(=O)[C@H](Cc1ccc(O)cc1)NC(=O)[C@H](Cc1ccc(O)cc1)NC(C)=O)C(C)C)C(=O)N1CCC[C@H]1C(=O)N[C@@H](Cc1ccc(O)cc1)C(=O)NCC(=O)N[C@@H](CCCNC(=N)N)C(=O)N[C@@H](CCCCN)C(=O)N[C@@H](CCCCN)C(=O)N[C@@H](CCCNC(=N)N)C(=O)N[C@@H](CCCNC(=N)N)C(=O)N[C@@H](CCC(N)=O)C(=O)N[C@@H](CCCNC(=N)N)C(=O)N[C@@H](CCCNC(=N)N)C(=O)N[C@@H](CCCNC(=N)N)C(N)=O | STAT3 | binding, MST | Kd | 18.4 µM
C/C(=C\C(=O)N[C@@H](CC(C)C)C(=O)N1CC(C)(C)C[C@H]1C(=O)N[C@H](C)CCC(N)=O)c1ccc(OP(=O)(O)O)cc1 | STAT3 | phosphopeptide binding, inhibitor, fluorescence polarization | IC50 | 0.155 ± 0.031 µM
CC(C)C[C@H](NC(=O)/C=C/c1ccc(OP(=O)(O)O)cc1)C(=O)N1CCC[C@H]1C(=O)NC/C=C/C(N)=O | STAT3 SH2 domain | inhibitor, fluorescence polarization | IC50 | 1.11 ± 0.43 µM
C/C(=C\C(=O)N[C@@H](CC(C)C)C(=O)N(C)CC(=O)N[C@H](C)CCC(N)=O)c1ccc(OP(=O)(O)O)cc1 | STAT3 | phosphopeptide binding, inhibitor, fluorescence polarization | IC50 | 1.54 ± 0.034 µM
CC(C)C[C@H](NC(=O)/C=C/c1ccc(OP(=O)(O)O)cc1)C(=O)N1CCC[C@H]1C(=O)N1CCC[C@@H]1CCC(N)=O | STAT3 SH2 domain | inhibitor, fluorescence polarization | IC50 | 3.31 ± 0.392 µM
